Published values from different studies.
Each line is one published result; not all experiments were run side by side. ± marks the error that the study gave.

Compound	assay	system	setting	scale	endpoint	result
CC1=C(/C=C/C(=O)N2CCN(C(N)=O)CC2)C(C)(C)CCC1		mouse male, retina	oral, 120 mg/kg, single dose		concentration in retina	94 µM
CCOC(=O)c1[nH]c(C)c(/C=C/C2=[N+]3C(=C(c4cc(OC)cc(OC)c4)c4c(C)c(I)c(/C=C/c5c(C)[nH]c(C(=O)OCC)c5C)n4[B-]3(F)F)C(C)=C2I)c1C		THF			Stokes shift	573 cm⁻¹
Cn1c(=O)c2c(nc(CN3CCN(C(=O)C4CC4)CC3)n2Cc2ccccc2F)n(C)c1=O	metabolic stability	rat, liver microsomes			half-life	0.333 h
OC1(C(F)(F)F)CCN(c2nc(Nc3ccnc(C(F)(F)F)c3)nc(-c3cccc(C(F)(F)F)n3)n2)C1 (centres unmarked)		Sprague-Dawley rat, both sexes, faeces	oral, 10.1 mg/kg	baseline: dose	excretion of parent and metabolites	> 90%
CC(C)CCC(CCN)C(=O)N[C@H](C(=O)N[C@@H](CN)C(=O)N[C@H]1CCNC(=O)[C@H]([C@@H](C)O)NC(=O)[C@H](CCN)NC(=O)[C@H](CCN)NC(=O)[C@H](CC(C)C)NC(=O)[C@@H](Cc2ccccc2)NC(=O)[C@H](CCN)NC1=O)[C@@H](C)O (some centres unmarked)		CD-1 mouse male, kidney	subcutaneous, 17.2 mg/kg, 4 h		tissue concentration	331000 ng/g
NCCC(=O)N1Cc2ccccc2-c2c(nnn2-c2cn(C3OC(CO)C(O)C3O)c(=O)[nH]c2=O)-c2ccccc21 (mixture of isomers)	fluorescence lifetime	methanol			fractional contribution τ3	0.11%
CNc1cc(OC)c(Nc2nccc(-c3cn(C4CC4)c4ccccc34)n2)cc1NC(=O)CCSCC(NC(C)=O)C(=O)O (centres unmarked)	radio-HPLC, co-eluting peaks pooled	human, feces	dose not given, 0 to 240 h, sample holds 81.99% dose	baseline: sample radioactivity	share of radioactivity	8.24%
C[N+](C)(C)CC(CC(=O)[O-])OC(=O)CCC(=O)Nc1ccn([C@@H]2O[C@H](CO)[C@@H](O)C2(F)F)c(=O)n1 (some centres unmarked)		THU-treated rat plasma	15.00 ng/mL, 1 h, 20 °C, bench-top stability, low QC		measured concentration	15.5 ± 1.3 ng/mL
C=CC(=O)Nc1cc(Nc2nccc(-c3cn(C4CC4)c4ccccc34)n2)c(OC)cc1NC	LC-RAM/HRMS	human male, plasma	oral, 110 mg, 4 h	baseline: total radioactivity	share of radioactivity	1.67%
CCCC(CCC)NC(=O)c1ccc(OC2OC(C(=O)O)C(O)C(O)C2O)c(O)c1 (centres unmarked)	LC-MS	Sprague-Dawley rats, pooled sexes, plasma	oral, 200 mg/kg of parent drug, 1 h	baseline: total peak area	metabolite peak area	2.3%
Cn1c(=O)oc2ccc(-c3ccc(CC(C#N)NC(=O)C4CNCCCO4)c(F)c3)cc21 (centres unmarked)		human volunteers, plasma	15 mg single dose, fasted, geometric mean		AUC(0-t)	796 ng·h/mL
CCCCCCCCCCCCCCCC(=O)N[C@@H](CCCCN)C(=O)N[C@@H](CCCCN)C(=O)N[C@@H](CO)C(=O)N[C@@H](CCCNC(=N)N)C(=O)N[C@@H](C)C(=O)N[C@@H](CC(C)C)C(=O)N[C@@H](Cc1ccccc1)C(N)=O		cynomolgus monkey, female	10 mg/kg, day 1		activated partial thromboplastin time	27.3 ± 2.3 s
CCCC[C@@H]1NC(=O)[C@@H](NC(=O)[C@H](CCC(=O)O)NC(=O)CNC(=O)CN2CCN(CC(=O)O)CCN(CC(=O)O)CCN(CC(=O)O)CC2)CCCCNC(=O)C[C@@H](C(N)=O)NC(=O)[C@H](C(C)C)NC(=O)[C@@H]2CCCN2C(=O)[C@H](CCCNC(=N)N)NC(=O)CNC(=O)[C@H](Cc2c[nH]c3ccccc23)NC(=O)[C@H](CCCNC(=N)N)NC(=O)[C@@H](Cc2ccccc2)NC(=O)[C@H](Cc2c[nH]cn2)NC(=O)[C@H](CCC(=O)O)NC1=O [gallium-67 labelled]		normal C57 mice, stomach	intravenous, 0.037 MBq/mouse, 4 h		tissue uptake	0.28 ± 0.12 %ID/g
[11CH3]Nc1ccc(-c2nc3ccc(O)cc3o2)cn1	PET	cynomolgus monkey			brain exposure	~1 % injected radioactivity
N=C(N)NCCC[C@@H]1NC(=O)[C@H](Cc2c[nH]c3ccccc23)NC(=O)[C@@H](CC2CCCCC2)NC(=O)[C@@H]2CCCN2C(=O)[C@@H](NC(=O)CCc2ccccc2)CCCNC1=O		C57BL/6J mouse, plasma	intravenous, 1 mg/kg single dose		Vss	0.00276 L
CC(C)(O)c1ncc([S@](N)(=O)=NC(=O)Nc2c3c(cc4c2CCC4)CCC3)s1		healthy human volunteers, plasma	oral, 200 mg once daily, day 14, spray-dried dispersion		Tmax	2 h
CCc1cc(Nc2nc(-c3ccc(-n4cnc(C)c4)c(F)c3)cs2)c(C)cc1C		human, plasma	oral, 100 mg once daily, day 14, multiple dose, geometric mean		apparent clearance (CL/F)	31200 mL/h
CCn1cc(/C=C/c2ccc3ccccc3[n+]2CC)c2ccccc21		methanol			Stokes shift	72 nm
N=C(N)NCCC[C@H](NC(=O)[C@@H]1CSSC[C@H](NC(=O)[C@H](Cc2ccc3ccccc3c2)NC(=O)[C@H](CCCNC(=N)N)NC(=O)[C@H](CCCNC(=N)N)NC(=O)CN2CCN(CC(=O)O)CCN(CC(=O)O)CCN(CC(=O)O)CC2)C(=O)N[C@@H](Cc2ccc(O)cc2)C(=O)N[C@@H](CCCNC(N)=O)C(=O)N[C@@H](CCCCN)C(=O)N[C@H](CCCCN)C(=O)N2CCC[C@H]2C(=O)N[C@@H](Cc2ccc(O)cc2)C(=O)N[C@@H](CCCNC(=N)N)C(=O)N[C@@H](CCCNC(N)=O)C(=O)N1)C(N)=O [copper-64 labelled]		mice, CHO-CXCR4 tumour and spleen	4 h, together with: unlabeled peptide 50 µg		tumour and spleen uptake	inhibited
Brc1ccccc1-c1nnc(CSc2nnnn2-c2ccccc2)o1		mouse C57BL/6J male, plasma	intraperitoneal, 10 mg/kg	baseline: plasma Cmax over CRFBP-CRF2 IC50	Cmax over IC50	4.8 fold
CCCC[C@H](NC(=O)CNC(=O)CNC(=O)CN1CCN(CC(=O)O)CCN(CC(=O)O)CC1)C(=O)N[C@H]1CC(=O)NCCCC[C@@H](C(N)=O)NC(=O)[C@H](Cc2c[nH]c3ccccc23)NC(=O)[C@H](CCCNC(=N)N)NC(=O)[C@@H](Cc2ccccc2)NC(=O)[C@H](Cc2c[nH]cn2)NC1=O [gallium-67 labelled]		C57 mice, female, B16/F1 melanoma, tumour over muscle	intravenous, 0.037 MBq, 24 h		tumour to tissue uptake ratio	8.05
CC(=O)N([O-])CCCCCNC(=O)CCC(=O)N([O-])CCCCCNC(=O)CCC(=O)N([O-])CCCCCN.[89Zr+4]		mouse, spleen	24 h		tracer uptake	0.12 %ID/g
CC(C)c1cnc(-c2cc(Cl)ccc2F)cc1Nc1ccncc1C(=O)NC(CO)CO		human patients	oral, dose not given, worst grade 3		patients with any TRAE	28.6%
COCCOCCOCCOCCC(=O)NCc1cc(CNC(=O)CCOCCOCCOCCOC)cc(-c2cc3cc4nc(c(-c5ccc(CCC(=O)O)cc5)c5[nH]c(cc6nc(c(OC)c2[nH]3)CC6(C)C)cc5-c2cc(CNC(=O)CCOCCOCCOCCOC)cc(CNC(=O)CCOCCOCCOCCOC)c2)CC4(C)C)c1		water with 5% DMF	room temperature		Qy emission FWHM	25 nm
CCCC[C@H](NC(=O)[C@H](CC(C)C)N(C)C(=O)CNC(=O)[C@@H](NC(=O)[C@H](Cc1ccccc1)NC(=O)[C@H](CCCCN)NC(=O)[C@@H](N)CC(=O)O)C(C)C)C(N)=O		anesthetized Gottingen minipig	subcutaneous, 1 µg/kg	baseline: baseline	mean arterial pressure	-0.62 ± 0.42%
O=C(CCc1ccc(CNC(C(=O)O)C2CCCCC2)cn1)NO (centres unmarked)		healthy male humans, plasma	oral, 20 mg, single dose, geometric mean		AUC(0-t)	61.5 ng·h/mL
O=C(O)c1cc2cc(O)ccc2n1Cc1ccc(Cl)c(C(F)(F)F)c1		male Wistar Hannover rat, serum	oral, 500 mg/kg, single dose, peak range		ALT	70 to 335 U/L
CCCC[C@H](NC(=O)CNC(=O)CNC(=O)CN1CCN(CC(=O)O)CCN(CC(=O)O)CCN(CC(=O)O)CC1)C(=O)N[C@H]1CC(=O)NCCCC[C@@H](C(N)=O)NC(=O)[C@H](Cc2c[nH]c3ccccc23)NC(=O)[C@H](CCCNC(=N)N)NC(=O)[C@@H](Cc2ccccc2)NC(=O)[C@H](Cc2c[nH]cn2)NC1=O [copper-64 labelled]		female C57 mouse, B16/F1 melanoma	intravenous, 0.037 MBq, 24 h	baseline: tumour over liver	uptake ratio	0.82
CCCC(CCC)NC(=O)c1ccc(OC)c(O)c1	LC-MS extracted ion chromatogram	Sprague-Dawley rat, male and female, pooled plasma	oral, 200 mg/kg, 1 h		peak area	1.61e+07 cps

A few entries again:
Compound	assay	system	setting	scale	endpoint	result
CC1=C(/C=C/C(=O)N2CCN(C(N)=O)CC2)C(C)(C)CCC1		mouse male, retina	oral, 120 mg/kg, single dose		concentration in retina	94 µM
CC(=O)N([O-])CCCCCNC(=O)CCC(=O)N([O-])CCCCCNC(=O)CCC(=O)N([O-])CCCCCN.[89Zr+4]		mouse, spleen	24 h		tracer uptake	0.12 %ID/g
